# Assay results gathered from unrelated publications.
# Several values in a cell are separate wells, animals, samples, runs or records. ± marks the error that the study gave.
# Spike glycoprotein: Spike glycoprotein (Severe acute respiratory syndrome coronavirus 2, UniProt P0DTC2)
SMILES,target,test,test system,setting,scale,quantity,value
CC(C)C[C@@H]1NC(=O)[C@H](CCCNC(=N)N)NC(=O)[C@@H]2CCCN2C(=O)[C@@H]2CSSC[C@H](NC(=O)CNC(=O)[C@@H]3CCCN3C(=O)[C@H](CCCCN)NC(=O)[C@H](CC(=O)O)NC(=O)[C@@H](NC(=O)CN)C(C)C)C(=O)N[C@@H](CCCNC(=N)N)C(=O)N[C@@H](Cc3ccc(O)cc3)C(=O)N[C@@H](CC(C)C)C(=O)N[C@@H](Cc3ccccc3)C(=O)NCC(=O)NCC(=O)N[C@H]3CSSC[C@H](NC(=O)CNC1=O)C(=O)N[C@@H](CCCCN)C(=O)NCC(=O)N[C@@H](CCCCN)C(=O)NCC(=O)N[C@@H](Cc1c[nH]cn1)C(=O)N[C@@H](CC(=O)O)C(=O)N[C@@H](Cc1ccc(O)cc1)C(=O)N[C@H](C(=O)N[C@@H](C)C(=O)N[C@@H](Cc1c[nH]c4ccccc14)C(=O)N[C@@H](CC(=O)O)C(=O)NCC(=O)N[C@H](C(=O)N[C@@H](Cc1ccccc1)C(=O)N[C@@H](CO)C(=O)N[C@@H](CC(=O)O)C(=O)O)[C@@H](C)O)CSSC[C@H](NC(=O)[C@H](CC(=O)O)NC(=O)[C@H](CC(=O)O)NC(=O)[C@H](CC(=O)O)NC(=O)[C@H](CO)NC(=O)[C@H](CCCCN)NC3=O)C(=O)N2,"Sodium channel protein type 10 subunit alpha (SCN10A, Homo sapiens, UniProt Q9Y5Y9)","channel current enhancement, activator",,,,Hill slope,1.5 ± 0.1
O=C(C=Cc1ccc(O)c(O)c1)OC1CC(O)(C(=O)O)CC(OC(=O)C=Cc2ccc(O)c(O)c2)C1O (centres unmarked),Spike glycoprotein,binding,,,,kon,892 M⁻¹ s⁻¹
O=C1SCCC1NC(C(=O)NCc1ccccc1)C1CC1 (centres unmarked),"Thiosulfate sulfurtransferase (TST, Homo sapiens, UniProt Q16762)",activator,,"17.1 µM, versus potassium cyanide, with: sodium thiosulfate 60 mM",,Vmax,0.17 ± 0.01 mM/s
CS(=O)(=O)NCC1CCOC2(CCN(C(=O)Cc3ccccc3)CC2)C1 (centres unmarked),"Polyprotein P1234, nsP2 (Chikungunya virus, UniProt Q8JUX6)","nsP2 ATPase activity, inhibitor, ADP-Glo",,high micromolar,,nsP2 ATPase inhibition,inactive
CSCC[C@@H](C=O)NC(=O)[C@H](CC(C)C)NC(=O)[C@H](CC(C)C)NC(C)=O,"Replicase polyprotein 1ab, main protease (rep, Middle East respiratory syndrome-related coronavirus, UniProt K9N7C7)",thermal stability,,,,ΔTm,2.53 °C
CC(C)(C)OC(=O)C[C@H](NC(=O)OCc1ccccc1)C(=O)CBr,"Replicase polyprotein 1ab, main protease (rep, Severe acute respiratory syndrome-related coronavirus, UniProt P0C6X7)",isothermal titration calorimetry,,"pH 7.4, 25 °C, 2% DMSO",,Gibbs free energy of binding,-8.3 kcal/mol
CSCC[C@H](NC(=O)[C@H](CCN)NC(=O)[C@@H](NC(=O)[C@H](Cc1c[nH]c2ccccc12)NC(=O)[C@H](CCCNC(=N)N)NC(=O)[C@@H](N)CCNc1ccc([N+](=O)[O-])cc1[N+](=O)[O-])[C@@H](C)O)C(=O)N[C@@H](CC(C)C)C(N)=O,"Botulinum neurotoxin type D (botD, Clostridium botulinum D phage, UniProt P19321)","enzyme activity, inhibitor",,concentration not given,,inhibition,0%
CC[C@H](C)[C@@H]1NC(=O)[C@H](CCCNC(=N)N)NC(=O)[C@H](CO)NC(=O)[C@H](CCC(=O)O)NC(=O)[C@H](CC(=O)O)NC(=O)CNC(=O)CNC(=O)[C@H]([C@@H](C)O)NC(=O)[C@H](Cc2ccccc2)NC(=O)[C@H](CO)NC(=O)[C@H]([C@@H](C)O)NC(=O)[C@H](C)NC(=O)[C@@H]2CSSC[C@@H](C(=O)N[C@@H](Cc3ccc(O)cc3)C(=O)N[C@@H](Cc3ccccc3)C(=O)N[C@H](C(=O)N[C@H](C(=O)NCC(=O)O)[C@@H](C)O)[C@@H](C)O)NC(=O)[C@H]([C@@H](C)O)NC(=O)[C@H](CSSC[C@H](NC(=O)[C@H](CCC(=O)O)NC(=O)[C@H](CO)NC(=O)[C@H](CCCCN)NC(=O)[C@H](Cc3ccc(O)cc3)NC(=O)[C@@H]3CCCN3C(=O)[C@H](Cc3ccccc3)NC(=O)[C@H](CCCCN)NC(=O)[C@H](CCCNC(=N)N)NC(=O)[C@H](CCCCN)NC(=O)[C@H](CCCCN)NC(=O)[C@H](Cc3ccc(O)cc3)NC(=O)[C@@H]3CCCN3C(=O)[C@@H](NC(=O)[C@H](CC(=O)O)NC(=O)[C@H](CCCCN)NC(=O)[C@H](CCCCN)NC(=O)[C@@H](NC(=O)[C@@H](NC(=O)[C@@H](N)CCC(=O)O)C(C)C)[C@@H](C)CC)[C@@H](C)O)C(=O)N[C@@H](CC(C)C)C(=O)N[C@@H](CCCCN)C(=O)N[C@@H](C)C(=O)N2)NC(=O)[C@H](CCCCN)NC(=O)[C@H](Cc2ccccc2)NC(=O)[C@H](Cc2ccccc2)NC(=O)CNC(=O)[C@@H]2CCCN2C(=O)[C@H](CCCCN)NC(=O)CNC(=O)[C@H](CCC(=O)O)NC(=O)[C@H](CCC(N)=O)NC1=O,"Potassium voltage-gated channel subfamily KQT member 5 (KCNQ5, Homo sapiens, UniProt Q9NR82)","potassium current, whole-cell patch clamp",HEK-293T,,,Hill slope,1.12 ± 0.06
Cc1ccc(N)cc1C(=O)NC(C)(C)c1ccc2c3c(cccc13)CC2,"Replicase polyprotein 1a, papain-like protease (Severe acute respiratory syndrome coronavirus 2, UniProt P0DTC1)",binding,,10 µM,,thermal shift (ΔTm),2.2 °C and 1.2 °C and 2 °C
COc1cc([N+](=O)[O-])cc(/C=N/NC(=O)[C@H]2COc3ccccc3O2)c1O,"uncharacterized protein (Candidatus Liberibacter solanacearum, UniProt A0A094YYW1)",,,,,koff,0.382 s⁻¹
CNC(C)C1C(O)CC2(C)C3CCC4C(C)(C)C(NC)CCC45CC35CCC12C (centres unmarked),Spike glycoprotein,"binding, BLI",,,,kon,776 M⁻¹ s⁻¹
CC(=O)N[C@@H](Cc1cn([C@@H]2O[C@H](CO)[C@H](O)[C@H](O)[C@H]2O)nn1)C(=O)NCC(=O)N[C@@H](C)C(=O)NCC(=O)N[C@@H](C)C(=O)NCC(=O)N1CCC[C@H]1C(=O)N[C@@H](CO)C(=O)NCC(=O)N[C@@H](C)C(=O)NCC(=O)N[C@@H](C)C(=O)NCC(=O)N1CCC[C@H]1C(=O)N[C@@H](CO)C(=O)NCC(=O)N[C@@H](C)C(=O)NCC(=O)N[C@@H](C)C(=O)NCC(=O)N1CCC[C@H]1C(=O)N[C@@H](CO)C(=O)NCC(=O)N[C@@H](C)C(=O)NCC(=O)N[C@@H](C)C(=O)NCC(=O)N1CCC[C@H]1C(=O)N[C@@H](CO)C(=O)NCC(=O)N[C@@H](C)C(=O)NCC(=O)N[C@@H](C)C(=O)NCC(=O)N1CCC[C@H]1C(=O)N[C@@H](Cc1cn([C@@H]2O[C@H](CO)[C@H](O)[C@H](O)[C@H]2O)nn1)C(=O)NCC(=O)NCC(=O)NCC(=O)NCC(N)=O,"ctxB, pentamer (Vibrio cholerae, UniProt P01556)",,,concentration not given,reference: galactose,inhibition potency,60 fold
CC[C@H](C)[C@H](NC(=O)[C@H](CC(C)C)NC(=O)[C@H](Cc1ccc(OP(=O)(O)O)cc1)NC(=O)[C@H](CCC(=O)O)NC(=O)[C@H](CC(=O)O)NC(=O)[C@H](C)NC(=O)[C@H](CC(=O)O)NC(=O)[C@@H](NC(=O)[C@H](CC(C)C)NC(=O)CCCC[C@@H]1SC[C@@H]2NC(=O)N[C@@H]21)C(C)C)C(=O)N1CCC[C@H]1C(=O)N[C@@H](CCC(N)=O)C(=O)N[C@@H](CCC(N)=O)C(=O)NCC(=O)O,"Secreted effector protein (Yersinia pestis, UniProt O68720)",,,,,ΔG,-4.38 kcal/mol
CC(=O)NCCOCCOCCOCCn1cc(CNC(=O)c2cc(O[C@H]3O[C@H](CO)[C@H](O)[C@H](O)[C@H]3O)cc([N+](=O)[O-])c2)nn1,"ctxB (Vibrio cholerae, UniProt P01556)",binding,,,,Hill slope,-1.2

# A few entries again:
SMILES,target,test,test system,setting,scale,quantity,value
CC(C)(C)OC(=O)C[C@H](NC(=O)OCc1ccccc1)C(=O)CBr,"Replicase polyprotein 1ab, main protease (rep, Severe acute respiratory syndrome-related coronavirus, UniProt P0C6X7)",isothermal titration calorimetry,,"pH 7.4, 25 °C, 2% DMSO",,Gibbs free energy of binding,-8.3 kcal/mol
CSCC[C@H](NC(=O)[C@H](CCN)NC(=O)[C@@H](NC(=O)[C@H](Cc1c[nH]c2ccccc12)NC(=O)[C@H](CCCNC(=N)N)NC(=O)[C@@H](N)CCNc1ccc([N+](=O)[O-])cc1[N+](=O)[O-])[C@@H](C)O)C(=O)N[C@@H](CC(C)C)C(N)=O,"Botulinum neurotoxin type D (botD, Clostridium botulinum D phage, UniProt P19321)","enzyme activity, inhibitor",,concentration not given,,inhibition,0%
